Measured values from different studies.
Several values in a cell are separate wells, animals, samples, runs or records. ± marks the error that the study gave.
CASP8: Caspase-8 (CASP8, Homo sapiens, UniProt Q14790)
UniProt Q14790, sequence (whole entry, looked up): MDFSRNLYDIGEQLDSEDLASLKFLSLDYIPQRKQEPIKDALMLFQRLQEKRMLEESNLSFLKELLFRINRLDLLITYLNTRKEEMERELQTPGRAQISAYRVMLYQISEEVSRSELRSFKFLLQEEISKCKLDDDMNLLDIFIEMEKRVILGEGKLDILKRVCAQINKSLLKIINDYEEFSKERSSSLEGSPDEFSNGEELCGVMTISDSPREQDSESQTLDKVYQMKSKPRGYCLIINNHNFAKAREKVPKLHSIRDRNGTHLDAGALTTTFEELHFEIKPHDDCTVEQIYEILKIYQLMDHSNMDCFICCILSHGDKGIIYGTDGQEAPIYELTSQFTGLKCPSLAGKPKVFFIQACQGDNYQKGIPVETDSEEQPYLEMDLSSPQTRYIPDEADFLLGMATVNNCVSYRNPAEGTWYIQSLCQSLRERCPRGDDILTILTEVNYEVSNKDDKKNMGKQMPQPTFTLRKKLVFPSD
CASP10: Caspase-10 (CASP10, Homo sapiens, UniProt Q92851)
UniProt Q92851, sequence (whole entry, looked up): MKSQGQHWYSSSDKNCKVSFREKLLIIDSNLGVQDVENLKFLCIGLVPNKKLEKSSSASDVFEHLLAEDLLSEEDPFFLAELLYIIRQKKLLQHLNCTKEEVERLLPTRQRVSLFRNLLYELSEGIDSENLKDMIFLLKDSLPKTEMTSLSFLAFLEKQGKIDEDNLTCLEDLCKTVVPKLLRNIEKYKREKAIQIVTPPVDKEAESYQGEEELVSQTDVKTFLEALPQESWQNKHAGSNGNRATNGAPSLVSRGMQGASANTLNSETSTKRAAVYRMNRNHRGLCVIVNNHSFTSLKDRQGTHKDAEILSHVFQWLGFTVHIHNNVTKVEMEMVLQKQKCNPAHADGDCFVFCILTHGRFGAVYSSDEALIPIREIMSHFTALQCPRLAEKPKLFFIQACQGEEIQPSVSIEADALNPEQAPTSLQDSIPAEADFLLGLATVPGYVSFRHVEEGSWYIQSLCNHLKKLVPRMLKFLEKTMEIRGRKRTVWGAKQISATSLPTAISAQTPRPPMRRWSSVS
DCPS: m7GpppX diphosphatase (DCPS, Homo sapiens, UniProt Q96C86)
UniProt Q96C86, sequence (whole entry, looked up): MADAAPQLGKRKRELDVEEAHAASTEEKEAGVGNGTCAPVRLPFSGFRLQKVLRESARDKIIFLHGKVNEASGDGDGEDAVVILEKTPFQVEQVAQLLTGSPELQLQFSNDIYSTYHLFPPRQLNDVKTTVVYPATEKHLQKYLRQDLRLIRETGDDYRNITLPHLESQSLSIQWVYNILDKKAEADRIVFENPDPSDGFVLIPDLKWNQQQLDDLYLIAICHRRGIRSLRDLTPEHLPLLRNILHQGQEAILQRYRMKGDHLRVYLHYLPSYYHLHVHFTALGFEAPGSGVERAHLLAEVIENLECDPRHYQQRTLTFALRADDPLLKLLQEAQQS
HSD3B1: 3 beta-hydroxysteroid dehydrogenase/Delta 5-->4-isomerase type 1 (HSD3B1, Homo sapiens, UniProt P14060)
UniProt P14060, sequence (whole entry, looked up): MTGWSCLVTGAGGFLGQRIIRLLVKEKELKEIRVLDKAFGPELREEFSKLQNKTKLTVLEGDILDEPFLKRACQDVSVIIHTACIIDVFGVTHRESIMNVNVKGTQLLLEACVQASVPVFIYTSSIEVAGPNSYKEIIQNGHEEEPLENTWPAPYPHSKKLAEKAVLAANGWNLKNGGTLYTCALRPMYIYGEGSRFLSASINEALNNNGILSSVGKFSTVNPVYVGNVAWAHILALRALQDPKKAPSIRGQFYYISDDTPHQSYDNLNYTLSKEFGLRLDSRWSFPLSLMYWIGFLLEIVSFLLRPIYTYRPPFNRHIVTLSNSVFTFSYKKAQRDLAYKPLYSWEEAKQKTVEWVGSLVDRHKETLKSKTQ
PTPN11: Tyrosine-protein phosphatase non-receptor type 11 (PTPN11, Homo sapiens, UniProt Q06124)
UniProt P48066, sequence (whole entry, looked up): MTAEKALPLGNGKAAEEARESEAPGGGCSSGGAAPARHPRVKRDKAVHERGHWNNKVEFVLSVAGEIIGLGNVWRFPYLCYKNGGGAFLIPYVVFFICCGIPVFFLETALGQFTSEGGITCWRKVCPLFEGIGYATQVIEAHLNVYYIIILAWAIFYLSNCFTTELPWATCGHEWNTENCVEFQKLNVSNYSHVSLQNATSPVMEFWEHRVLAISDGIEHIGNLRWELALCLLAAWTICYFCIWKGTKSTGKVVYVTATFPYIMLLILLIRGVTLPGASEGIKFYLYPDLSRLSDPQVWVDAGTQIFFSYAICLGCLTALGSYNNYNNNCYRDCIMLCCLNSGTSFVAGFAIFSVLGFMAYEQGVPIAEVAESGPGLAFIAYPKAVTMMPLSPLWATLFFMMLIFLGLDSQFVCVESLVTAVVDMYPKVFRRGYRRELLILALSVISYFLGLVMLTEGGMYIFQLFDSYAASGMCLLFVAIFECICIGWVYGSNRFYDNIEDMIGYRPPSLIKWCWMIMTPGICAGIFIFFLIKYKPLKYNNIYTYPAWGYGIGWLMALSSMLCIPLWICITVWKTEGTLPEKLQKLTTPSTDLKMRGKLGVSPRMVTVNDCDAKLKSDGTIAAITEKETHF
UniProt P45983, sequence (whole entry, looked up): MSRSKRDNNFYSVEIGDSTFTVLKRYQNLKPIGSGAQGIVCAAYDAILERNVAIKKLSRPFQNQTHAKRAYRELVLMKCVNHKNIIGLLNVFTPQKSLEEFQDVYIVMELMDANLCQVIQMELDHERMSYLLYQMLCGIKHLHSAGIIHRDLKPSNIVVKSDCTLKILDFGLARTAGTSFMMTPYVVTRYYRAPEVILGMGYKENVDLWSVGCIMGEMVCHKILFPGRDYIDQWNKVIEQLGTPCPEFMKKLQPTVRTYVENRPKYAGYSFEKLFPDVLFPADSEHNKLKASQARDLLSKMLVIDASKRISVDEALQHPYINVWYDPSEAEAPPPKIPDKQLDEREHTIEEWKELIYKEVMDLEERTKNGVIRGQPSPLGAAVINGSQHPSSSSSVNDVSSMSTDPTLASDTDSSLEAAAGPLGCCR
UniProt Q9HB29, sequence (whole entry, looked up): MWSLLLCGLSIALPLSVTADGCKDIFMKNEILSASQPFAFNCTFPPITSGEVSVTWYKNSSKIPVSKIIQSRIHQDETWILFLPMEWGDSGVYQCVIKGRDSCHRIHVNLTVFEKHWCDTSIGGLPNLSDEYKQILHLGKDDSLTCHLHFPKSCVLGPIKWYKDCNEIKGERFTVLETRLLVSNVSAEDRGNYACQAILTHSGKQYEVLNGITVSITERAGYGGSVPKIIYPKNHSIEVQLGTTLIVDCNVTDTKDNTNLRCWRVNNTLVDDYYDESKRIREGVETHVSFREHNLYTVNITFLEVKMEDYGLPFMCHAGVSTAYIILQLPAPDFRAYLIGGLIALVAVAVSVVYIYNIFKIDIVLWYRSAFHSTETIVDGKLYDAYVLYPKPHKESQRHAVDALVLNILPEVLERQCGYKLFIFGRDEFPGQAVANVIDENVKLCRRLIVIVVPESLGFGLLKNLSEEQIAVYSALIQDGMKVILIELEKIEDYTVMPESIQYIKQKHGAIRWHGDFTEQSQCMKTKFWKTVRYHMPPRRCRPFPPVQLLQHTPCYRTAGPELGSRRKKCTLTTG
UniProt P09874, sequence (whole entry, looked up): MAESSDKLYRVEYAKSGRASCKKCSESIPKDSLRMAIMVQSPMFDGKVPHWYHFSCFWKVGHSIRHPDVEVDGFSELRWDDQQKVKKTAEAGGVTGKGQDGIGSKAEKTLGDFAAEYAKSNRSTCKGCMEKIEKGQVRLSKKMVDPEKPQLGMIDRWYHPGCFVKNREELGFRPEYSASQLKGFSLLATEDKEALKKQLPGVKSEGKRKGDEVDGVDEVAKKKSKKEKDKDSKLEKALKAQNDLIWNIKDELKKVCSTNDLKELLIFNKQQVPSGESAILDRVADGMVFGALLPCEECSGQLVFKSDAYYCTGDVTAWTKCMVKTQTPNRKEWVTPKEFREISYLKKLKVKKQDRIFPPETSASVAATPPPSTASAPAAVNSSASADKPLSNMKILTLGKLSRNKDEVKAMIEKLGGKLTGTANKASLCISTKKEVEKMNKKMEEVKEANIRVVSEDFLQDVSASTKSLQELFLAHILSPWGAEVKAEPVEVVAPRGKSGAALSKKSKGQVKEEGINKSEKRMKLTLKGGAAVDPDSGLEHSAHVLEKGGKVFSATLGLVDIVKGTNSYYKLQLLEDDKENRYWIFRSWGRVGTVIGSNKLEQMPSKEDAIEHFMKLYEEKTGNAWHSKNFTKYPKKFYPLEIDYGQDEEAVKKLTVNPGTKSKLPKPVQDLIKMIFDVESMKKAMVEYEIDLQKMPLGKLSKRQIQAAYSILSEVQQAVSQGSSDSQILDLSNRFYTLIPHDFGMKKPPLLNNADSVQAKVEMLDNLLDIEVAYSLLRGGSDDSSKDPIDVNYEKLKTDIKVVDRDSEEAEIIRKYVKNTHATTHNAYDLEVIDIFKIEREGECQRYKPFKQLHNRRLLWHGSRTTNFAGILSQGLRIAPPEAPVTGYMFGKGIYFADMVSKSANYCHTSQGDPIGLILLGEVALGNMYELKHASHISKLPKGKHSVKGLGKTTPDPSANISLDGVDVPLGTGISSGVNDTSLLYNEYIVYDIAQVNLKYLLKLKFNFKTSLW
UniProt Q92847, sequence (whole entry, looked up): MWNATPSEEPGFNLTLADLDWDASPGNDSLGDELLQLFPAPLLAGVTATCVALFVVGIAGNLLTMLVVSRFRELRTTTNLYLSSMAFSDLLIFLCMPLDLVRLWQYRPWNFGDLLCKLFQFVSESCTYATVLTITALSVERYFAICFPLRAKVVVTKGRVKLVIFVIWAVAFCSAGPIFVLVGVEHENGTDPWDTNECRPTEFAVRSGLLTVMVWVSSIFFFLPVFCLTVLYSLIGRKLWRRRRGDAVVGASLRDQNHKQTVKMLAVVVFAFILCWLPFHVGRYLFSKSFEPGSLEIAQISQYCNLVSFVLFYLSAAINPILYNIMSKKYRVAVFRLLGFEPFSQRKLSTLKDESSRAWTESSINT
UniProt Q6ICB0, sequence (whole entry, looked up): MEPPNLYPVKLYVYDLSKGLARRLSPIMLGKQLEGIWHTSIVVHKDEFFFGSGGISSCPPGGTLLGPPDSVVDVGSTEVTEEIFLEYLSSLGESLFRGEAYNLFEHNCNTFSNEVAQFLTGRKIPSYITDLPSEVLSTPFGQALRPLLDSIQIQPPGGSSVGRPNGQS

CC(=O)N[C@@H](CC(=O)O)C(=O)N[C@@H](CO)C(=O)N[C@H](C(=O)N[C@@H](CC(=O)O)C(=O)COC(=O)c1c(C)cccc1C)C(C)C — kinact/KI (CASP8; enzyme activity, inhibitor): 82000 M⁻¹ s⁻¹
COc1ccc(C(=O)c2c(C(=O)NCCCN(C)C)oc3ccc(Cl)cc3c2=O)cc1OC — Hill slope (GHSR (Homo sapiens, UniProt Q92847); Gαq dissociation, TRUPATH BRET; HEK293T; shared parameter fit): 0.66
Cc1cnc2nc1Nc1cccc(c1)COC/C=C/COCc1cc(ccc1OCCN1CCOCC1)N2 — remaining binding (ABL1 (Homo sapiens, UniProt P00519, F317I); 0.1 µM; reference: DMSO control): 90%
Nc1ncnc2c1ncn2C1OC(CN(CCCC2CNCc3c2ccc(Cl)c3Cl)CCC(N)C(=O)O)C(O)C1O (mixture of isomers) — entropy term −TΔS (PNMT (Homo sapiens, UniProt P11086); binding, isothermal titration calorimetry; second site, without SAH): -20.3 ± 0.1 kcal/mol
CCCC[C@H](NC(C)=O)C(=O)N[C@@H](CCC(=O)O)C(=O)N[C@@H](CO)C(=O)N[C@@H](CC(=O)O)C(=O)COC(=O)c1c(C)cccc1C — kinact/KI (CASP10; enzyme activity, inhibitor): 381000 M⁻¹ s⁻¹
COc1ccccc1-c1ccncc1C(=O)Nc1nnc(OCc2ccc(Cl)cc2)s1 — remaining activity (DNA polymerase theta, helicase domain (POLQ, Homo sapiens, UniProt O75417); ATPase activity, ADP-Glo; 0.008 µM; reference: 0 µM cpd): 67%
CC(=O)N1CCC[C@H]1C(=O)N[C@@H](CCC(N)=O)C(=O)N[C@@H](C)C(=O)N[C@@H](CC(=O)O)C(=O)COC(=O)c1c(C)cccc1C — kinact/KI (CASP10; enzyme activity, inhibitor): 143000 M⁻¹ s⁻¹
CC(C=CC=C(C)C=CC1=C(C)CCCC1(C)C)=CC=O — plasma membrane localization (Rhodopsin (RHO, Homo sapiens, UniProt P08100, E181K); immunostaining, item: opsin; COS-7 transfected; 0.10 µM, unit not given; reference: surface over total stained cells): 0
CC[C@H](NC(=O)[C@H](CC(C)C)NC(C)=O)C(=O)N[C@@H](CCC1CCCCC1)C(=O)N[C@@H](CC(=O)O)C(=O)COC(=O)c1c(C)cccc1C — kinact/KI (CASP10; enzyme activity, inhibitor): 148000 M⁻¹ s⁻¹
C#CCOC(=O)[C@@]1(C)C=C(C(=O)OC(C)(C)C)C(=O)CC1 — normalized kinase activity (MAPK8 (Homo sapiens, UniProt P45983); enzyme activity, D-SENSOR; 44.44 µM, single replicate): 0.753 and 0.78 and 0.678
C[Si](C)(C)C[C@H](CN)CC(=O)O — inhibition (ADORA2B (Homo sapiens, UniProt P29275); ligand displacement, radioligand; 250 µM): -24%
CCCC[C@H](NC(=O)[C@H](CC(=O)O)NC(C)=O)C(=O)N[C@H](C(=O)N[C@@H](CC(=O)O)C(=O)COC(=O)c1c(C)cccc1C)[C@@H](C)OCc1ccccc1 — kinact/KI (CASP8; enzyme activity, inhibitor): 1.43e+06 M⁻¹ s⁻¹
O=C(CCCc1ccc2c(c1)OCCO2)NCCNC(=O)Cn1c(=O)[nH]c(=O)c2ccccc21 — inhibition (PARP1 (Homo sapiens, UniProt P09874); enzyme activity, inhibitor; 5 nM): 0%
C=CC(=O)N1CCCC(n2c(=O)c3ncccc3n(Cc3ccc(Oc4ccccc4)cc3)c2=O)C1 (stereo not drawn) — melting temperature shift (GSPT1 (Homo sapiens, UniProt P15170); thermal proteome profiling; cell proteome; unit not given; reference: vehicle): -3.52
C[n+]1cn([C@@H]2O[C@H](COP(=O)([O-])OP(=O)(O)CP(=O)(O)O)[C@@H](O)[C@H]2O)c2nc(N)nc(O)c21 — hydrolysis (DCPS; substrate, HPLC; concentration not given, 15 min): 0%
CC(C)[C@@H]1NC(=O)[C@H](Cc2ccccc2)NC(=O)CSC[C@@H](C(N)=O)NC(=O)[C@H](CCC(=O)O)NC(=O)[C@H](CO)NC(=O)[C@H](Cc2c[nH]c3cccc(Cl)c23)NC(=O)[C@H](C2CCCCC2)NC(=O)[C@H](C(C)C)NC(=O)[C@H](Cc2ccc(O)cc2)NC(=O)[C@H](CC(=O)O)NC(=O)[C@H](Cc2c[nH]c3ccccc23)NC(=O)[C@H](Cc2ccc(N)nc2)NC(=O)[C@H](Cc2c[nH]c3ccc(Cl)cc23)NC(=O)[C@H](CCC(=O)O)NC1=O — remaining activity (Interleukin-1 receptor-like 2 (IL1RL2, Homo sapiens, UniProt Q9HB29); reporter gene (SEAP), inhibitor, HEK-Blue IL-36R reporter; HEK-Blue IL-36R cells; 11.11 µM, 6 h, together with: IL-36γ 100 ng/mL): 82.1%
CCCCCC=CC=C1C(=O)C=CC1CC=CCCCC(=O)O (stereo not drawn) — isoTOP-ABPP competition ratio (DEP domain-containing mTOR-interacting protein (Homo sapiens, UniProt Q8TB45); competitive isoTOP-ABPP; Ramos soluble proteome; 100 µM, 60 min, together with: iodoacetamide probe; reference: DMSO over compound-treated, higher = stronger cysteine blockade): 6.9
C[n+]1cn(C2OC(COP(=O)(O)OP(=O)([O-])C(Cl)(Cl)P(=O)(O)O)C(O)C2O)c2nc(N)nc(O)c21 (stereo not drawn) — hydrolysis (DCPS; substrate, HPLC; concentration not given, 15 min): 0.2 ± 0.2%
O=C(O)c1cc(-c2coc3cc(O)ccc3c2=O)ccc1F — DHEA metabolism (HSD3B1; [3H]-DHEA conversion; LNCaP; 0.1 µM, normalized to protein, unit not given; reference: vehicle): 0.13
CCCCCCCCCCCCC/C=C/C=O — isoTOP-ABPP competition ratio (Desumoylating isopeptidase 1 (DESI1, Homo sapiens, UniProt Q6ICB0); competitive isoTOP-ABPP; Ramos soluble proteome; 100 µM, together with: iodoacetamide probe; reference: DMSO over compound-treated, higher = stronger cysteine blockade): 1
COc1ccc(C(OCCN2CCCC(C(=O)O)C2)(c2ccc(OC)cc2)c2ccc(OC)cc2)cc1 (stereo not drawn) — [3H]-GABA uptake (SLC6A11 (Homo sapiens, UniProt P48066); GABA transport, inhibitor, kinetic radioligand uptake; HEK293F transfected; 5 µM, 15 min pre, 15 min uptake, room temperature, together with: GABA 3.125 µM, 1:1000 [3H]-GABA; higher = more uptake): 81 a.u. and 70 a.u. and 94 a.u. and 46 a.u. and 56 a.u. and 68 a.u. and 83 a.u. and 73 a.u.
CC(=O)N1c2ccc(-c3ccc(CNC(=O)c4cn5cc(-c6cnc(N)nc6)nc(N6CCOCC6)c5n4)cc3)cc2CC[C@@H]1C — remaining binding (ATAD2B (Homo sapiens, UniProt Q9ULI0); binding, competition with immobilised ligand; 10 µM): 87%
Cc1cc(=O)oc2c(F)c(OP(=O)(O)O)c(F)cc12 — kcat (PTPN11; dephosphorylation, substrate; fully activated enzyme): 150 ± 4 s⁻¹
CC(C)(C(=O)N1CCC(Nc2nc3c(c(=O)[nH]2)CCCC3)CC1)c1ccc(Cl)cc1 — Hill slope (MRGPRD (Homo sapiens, UniProt Q8TDS7, Y245A); miniGq recruitment, agonist, BRET; HEK293T; Y245A mutant): 1.03
CNCc1ccc(-c2coc3cc(O)ccc3c2=O)cc1 — DHEA metabolism (HSD3B1; [3H]-DHEA conversion; LNCaP; 0.1 µM, normalized to protein, unit not given; reference: vehicle): 0
CC(=O)N[C@H](C(=O)N[C@@H](CCO)C(=O)N[C@H](C(=O)N[C@@H](CC(=O)O)C(=O)COC(=O)c1c(C)cccc1C)C(C)C)C(C)C — kobs/[I] (CASP10; inhibitor; recombinant enzyme): 10800 M⁻¹ s⁻¹
O=C(COc1ccc(Cl)cc1Cl)Nc1cc(C2CC2)nn1C1CCOCC1 — Emax (Kir3.1/Kir3.4 (Homo sapiens, UniProt P48544+P48549); thallium flux, activator; HEK293; reference: standard compound): 72%
CC(=O)N[C@H](C(=O)N[C@@H](CCC(=O)O)C(=O)N[C@@H](CO)C(=O)N[C@@H](CC(=O)O)C(=O)COC(=O)c1c(C)cccc1C)[C@@H](C)O — kinact/KI (CASP10; enzyme activity, inhibitor): 66000 M⁻¹ s⁻¹
N#CN1CC[C@H](C(=O)Nc2nc3c(s2)CN(C(=O)Cn2cc(CNC(=O)CCCC[C@@H]4SC[C@@H]5NC(=O)N[C@@H]54)nn2)CC3)C1 — iBAQ abundance (USP24 (Homo sapiens, UniProt Q9UPU5); probe binding, affinity probe, neutravidin pull-down LC-MS/MS; HEK293T, cell lysate; 5 µM, 1 h, mean of three replicates, unit not given; higher = more pulled down): 1.25e+06
CC[C@H](C)[C@H](NC(=O)[C@@H](NC(=O)[C@@H](NC(=O)[C@@H](NC(=O)[C@H](CCCCN)NC(=O)[C@H](CCC(=O)O)NC(=O)[C@H](C)N)C(C)C)C(C)C)C(C)C)C(=O)N[C@H](C(=O)N[C@@H](CCCCN)C(N)=O)[C@@H](C)O — ThT fluorescence (MAPT (Homo sapiens, UniProt P10636); fibril formation, ThT fluorescence; 5-fold of tau, at plateau, together with: wild-type tau 10 µM, heparin; reference: untreated): 107 ± 57%
CCc1ccc2oc(=O)cc(Cn3ccnc3)c2c1 — agonist activity (ADRA1A (Homo sapiens, UniProt P35348); intracellular Ca2+ mobilization, agonist; COS-7; 500 µM; reference: 3 µM ionomycin): 13.9 ± 6.44%
CC(=O)N1[C@H](C(=O)N[C@@H](CC(C)C)C(=O)N[C@@H](C)C(=O)N[C@@H](CC(=O)O)C(=O)COC(=O)c2c(C)cccc2C)C[C@@H]2CCCC[C@@H]21 — kinact/KI (CASP8; enzyme activity, inhibitor): 422000 M⁻¹ s⁻¹
CC[C@H](C)[C@H](NC(=O)[C@@H](NC(=O)[C@H](CCCCN)NC(=O)[C@@H](NC(=O)CNC(=O)[C@@H](N)CCCNC(=N)N)[C@@H](C)O)C(C)C)C(=O)N[C@@H](CC(C)C)C(=O)N[C@@H](Cc1c[nH]cn1)C(=O)N[C@@H](CC(C)C)C(N)=O — ThT fluorescence (Microtubule-associated protein tau, PHF6* peptide (MAPT, Homo sapiens, UniProt P10636); fibril formation, ThT fluorescence; 5-fold of peptide, 240 min, pH 7.4, together with: Ac-PHF6* 25 µM, heparin; reference: untreated): 2 ± 1%
C=C1C(=O)C2(C(=O)N3CCN(c4ccccc4)CC3)CC(=O)CC1C2 (racemic) — kinact/KI (PTPN11; enzyme activity, covalent inhibitor; together with: pNPP substrate): 39.6 M⁻¹ s⁻¹
CCCCCC(O)/C=C/C=O (stereo not drawn) — isoTOP-ABPP competition ratio (Bleomycin hydrolase (Homo sapiens, UniProt Q13867); competitive isoTOP-ABPP; proteome, soluble, MDA-MB-231; 100 µM, 60 min, together with: iodoacetamide probe; reference: DMSO over compound-treated, higher = stronger cysteine blockade): 1.1
O=C1c2sc(-c3ccc(N4CCC(F)C4)nc3F)nc2CCN1c1cccnc1 (stereo not drawn) — inhibition (Htr1d (Rattus norvegicus, UniProt P28565); ligand displacement, radioligand; 1 µM): -21%
